Assay results collected from several papers.
Lines come from different studies, so protocols differ.
Organism: Leishmania infantum

O=C(Nc1ccc2c(c1)CN(c1ccc(F)c(F)c1)C2=O)N1CCN(c2ccc(Cl)cc2)CC1
IC50 (parasite growth, Giemsa stain; primary peritoneal mouse macrophages, MHOM/MA(BE)/67 amastigotes; 5 d): > 64 µM

NNc1n[nH]c(=O)c2ccccc12
IC50 (parasite growth, MTT; 72 h, promastigote): > 25 µM

O=[N+]([O-])/C=C/c1ccco1
IC50 (parasite growth; 72 h, promastigote): 2.5 µM

CCOC(=O)c1c(C(=O)OC)cn(CC(c2cn(C)c3ccccc23)c2cn(C)c3ccccc23)c1C
IC50 (viability, MTS; human clinical isolate promastigote; 72 h): 7.2 µM

CCOC(=O)c1csc(NN=Cc2ccccc2O)n1
IC50 (parasite growth; 72 h, promastigote): 290 µM

CCCCCc1cn(CCCCCCCCCCCOP(=O)([O-])OCC[N+](C)(C)C)nn1
IC50 (parasite growth, flow cytometry; 24 h, promastigote): > 200 µM

O=[N+]([O-])/C(Br)=C/c1ccco1
IC50 (parasite growth; 72 h, promastigote): 1.7 µM

O=C(Nc1ccc2c(c1)CN(c1ccc(Br)cc1)C2=O)N1CCN(c2ccc(F)cc2)CC1
IC50 (parasite growth, imaging; intracellular, amastigote): 20.3 µM

NNc1nnc(Cl)c2ccccc12
IC50 (parasite growth, MTT; 72 h, promastigote): > 25 µM

O=C(Nc1ccc2c(c1)CN(c1ccc(Cl)cc1)C2=O)N1CC[C@H](F)C1
IC50 (parasite growth, Giemsa stain; primary peritoneal mouse macrophages, MHOM/MA(BE)/67 amastigotes; 5 d): > 64 µM

CCOC(=O)c1cn(CC(c2c[nH]c3cc(Br)ccc23)c2c[nH]c3cc(Br)ccc23)c(C)c1C(=O)OC
IC50 (viability, MTS; human clinical isolate promastigote; 72 h): 6.4 µM

O=C(Nc1ccc2c(c1)CN(c1ccc(Cl)cc1)C2=O)N1CC[C@H](O)C1
IC50 (parasite growth, Giemsa stain; primary peritoneal mouse macrophages, MHOM/MA(BE)/67 amastigotes; 5 d): > 64 µM

CCOC(=O)c1csc(NN=Cc2ccc(Cl)cc2)n1
IC50 (parasite growth; 72 h, promastigote): 108 µM

Repeated from above:
CCOC(=O)c1cn(CC(c2c[nH]c3cc(Br)ccc23)c2c[nH]c3cc(Br)ccc23)c(C)c1C(=O)OC
IC50 (viability, MTS; human clinical isolate promastigote; 72 h): 6.4 µM
